Earlier results as cited in several papers.
Lines come from different studies, so protocols differ. Numbers after ± are the reported error.
Sequence of UniProt Q9HBY8 (whole entry, looked up): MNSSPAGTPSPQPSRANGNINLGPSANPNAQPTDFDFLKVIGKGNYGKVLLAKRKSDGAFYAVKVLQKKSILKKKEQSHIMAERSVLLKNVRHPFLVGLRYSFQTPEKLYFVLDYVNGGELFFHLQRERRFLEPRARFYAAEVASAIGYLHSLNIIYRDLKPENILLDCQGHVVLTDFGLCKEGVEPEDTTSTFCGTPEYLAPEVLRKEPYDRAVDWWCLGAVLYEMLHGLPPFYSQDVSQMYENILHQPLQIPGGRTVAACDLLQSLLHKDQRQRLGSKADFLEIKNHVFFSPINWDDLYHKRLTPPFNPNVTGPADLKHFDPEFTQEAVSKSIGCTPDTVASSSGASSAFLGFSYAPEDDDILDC

CCOc1cc(C(C)(C)C)ccc1C1=N[C@@](C)(c2ccc(Cl)cc2)[C@@](C)(c2ccc(Cl)cc2)N1C(=O)N1CCN(CCCS(C)(=O)=O)CC1  response rate (relapsed/refractory AML patients; dose not given, phase I trial): ~25%
COC(=O)C1=C(C)NC(C)=C(C(=O)OC)C1c1c(Cl)nc2sc(C)c(C)n12  decrease in atrial rate (guinea pig right atrium; 5 µM, spontaneously beating; baseline: control): 29 ± 1.9%
O=C(c1ccc(Cl)cc1)N(Cc1ccccc1)C1CCCCC1  RAGE expression (mouse, LPS-induced ALI; dose not given, with: intratracheal LPS): decreased
Cc1cc(-c2nccc3c2ccn3CC(=O)Nc2ccc(-c3cnccn3)cn2)ccn1  Ashcroft score (mouse, bleomycin-induced pulmonary fibrosis; oral, 25 mg/kg once daily, days 7-21): decreased
C=CC(=O)Nc1cc(Nc2ncc(C(=O)OC(C)C)c(-c3cn(C)c4ccccc34)n2)c(OC)cc1N(C)CCN(C)C  objective response rate (phase 1/2 trial; human, NSCLC patients; dose not given): 28%
CC1(C)CCC(CN2CCN(c3ccc(C(=O)NS(=O)(=O)c4ccc(NCC5CCOCC5)c([N+](=O)[O-])c4)c(Oc4cnc5[nH]ccc5c4)c3)CC2)=C(c2ccc(Cl)cc2)C1  response rate (CR + CRi) (human, AML; dose not given, monotherapy, sample B patients): 19%
CCN(c1cc(-c2ccc(CN3CCOCC3)cc2)cc(C(=O)NCc2c(C)cc(C)[nH]c2=O)c1C)C1CCOCC1  overall response rate (relapsed/refractory DLBCL, EZH2 mutant; dose not given): 29%
Nc1cc(C(F)(F)F)c(-c2nc(N3CCOCC3)nc(N3CCOCC3)n2)cn1  remaining activity (Serine/threonine-protein kinase Sgk2 (SGK2, Homo sapiens, UniProt Q9HBY8); enzyme activity; 10 µM; baseline: untreated): 96%
COC(=O)C1=C(C)NC(C)=C(C(=O)OC)C1c1c(Cl)nc2sc(Cl)cn12  decrease in developed tension (guinea pig left atrium; 50 µM, paced at 1 Hz; baseline: control): 77 ± 2.9%
COc1ccc(CC(C)NCC(O)c2ccc(O)c(NC=O)c2)cc1 (stereo not shown)  trough FEV1 change from baseline (COPD patients; inhaled, 24 µg single, 12 h post-dose; baseline: placebo): 44 mL
C=CC(=O)Nc1cc(Nc2nccc(Nc3cc(Cl)c(F)cc3C(C)(C)O)n2)c(OC)cc1N1CC[C@@H](N(C)C)C1  objective response rate (clinical trial; human, advanced or metastatic NSCLC; dose not given): 46%
C[C@H]1COCCN1c1nc(-c2cnc(N)cc2C(F)F)nc(N2CCOCC2)n1  GI50 (A498): 128 nM
O=C(O)c1ccc(O)c(O)c1  effective dose (anti-inflammatory effect; lung injury, acute, LPS-induced mouse; intraperitoneal): 5 mg/kg
CC(C)C[C@H](NC(=O)[C@H](CC(C)C)NC(=O)[C@H](Cc1c[nH]c2ccccc12)NC(=O)[C@H](CCC(=O)O)NC(=O)[C@@H](NC(=O)[C@H](Cc1ccccc1)NC(=O)[C@H](CCC(=O)O)NC(=O)[C@H](CCCCNC(=O)COCCOCCNC(=O)COCCOCCNC(=O)CC[C@H](NC(=O)CCCCCCCCCCCCCCCCCCC(=O)O)C(=O)O)NC(=O)[C@H](C)NC(=O)[C@H](CCCCN)NC(=O)[C@H](CCCCN)NC(=O)[C@H](CCC(=O)O)NC(=O)[C@H](CC(=O)O)NC(=O)[C@H](CC(C)C)NC(=O)[C@H](Cc1ccc(O)cc1)NC(=O)[C@H](CCCCN)NC(=O)[C@H](CO)NC(=O)[C@H](Cc1ccc(O)cc1)NC(=O)[C@H](CC(=O)O)NC(=O)[C@H](CO)NC(=O)[C@@H](NC(=O)[C@H](Cc1ccccc1)NC(=O)[C@@H](NC(=O)CNC(=O)[C@H](CCC(N)=O)NC(=O)C(C)(C)NC(=O)[C@@H](N)Cc1c[nH]cn1)[C@@H](C)O)[C@@H](C)O)C(C)C)C(=O)N[C@@H](CCC(=O)O)C(=O)NCC(=O)NCC(=O)N1CCC[C@H]1C(=O)N[C@@H](CO)C(=O)N[C@@H](CO)C(=O)NCC(N)=O  body weight loss (human obesity or overweight; 6 mg, 24 weeks, trial): 11%
Nc1cccc2c1CN(C1CCC(=O)NC1=O)C2=O (stereo not shown)  IC50 (TNF release; human whole blood; with: LPS): 100 nM
C[C@@]12C[C@@]3(O)O[C@@H](O1)[C@]1(COC(=O)c4ccccc4)[C@H]3C[C@@]12O[C@@H]1O[C@H](CO)[C@@H](O)[C@H](O)[C@H]1O  effective dose (ADP-induced platelet aggregation, inhibitor; rabbit blood): 36 mmol/L
COC(=O)C1=C(C)NC(C)=C(C(=O)OC)C1c1c(-c2cc(OC)ccc2OC)nc2sc(Cl)cn12  EC50 (negative inotropic effect; guinea pig, isolated left atrium): 900 nM
C1Cc2[nH]nc(-c3nnn[nH]3)c2C1  plasma lipid levels (refers to: HDL, LDL cholesterol, triglycerides; human phase II trial; dose not given): no effect
Cn1cncc1[C@@](N)(c1ccc(Cl)cc1)c1ccc2c(c1)c(-c1cccc(Cl)c1)cc(=O)n2C  response rate (human, newly diagnosed untreated JMML; dose not given, complete plus partial response): 58%
COC(=O)C1=C(C)NC(C)=C(C(=O)OC)C1c1c(C)nc2sc(C)cn12  decrease in contractile force (negative inotropic effect; guinea pig left atrium; 5×100 nM): 43 ± 3.3%
CCN1[C@@H](C(=O)NC23CCC(C(=O)O)(CC2)CC3)[C@H](c2cccc(Cl)c2F)[C@]2(C(=O)Nc3cc(Cl)ccc32)C12CCCCC2  M2 macrophage population (mouse; dose not given): decreased
COC(=O)C1=C(C)NC(C)=C(C(=O)OC)C1c1c(-c2c(OC)ccc(OC)c2[N+](=O)[O-])nc2sccn12  IC50 (calcium-induced contraction, relaxant; guinea pig ileum longitudinal muscle): 11000 nM
CC1(C)S[C@@H]2[C@H](NC(=O)[C@H](N)c3ccccc3)C(=O)N2[C@H]1C(=O)O  MIC (Escherichia coli; clinical isolate RKI-No_581/16): > 16 µg/mL
Nc1ccn([C@@H]2O[C@H](CO)[C@@H](O)C2(F)F)c(=O)n1  tumour regression rate (human pancreatic cancer, mouse xenograft; dose not given): 36%
NC(=O)c1nnn(Cc2cc(Cl)c(C(=O)c3ccc(Cl)cc3)c(Cl)c2)c1N  disease stabilization rate (human relapsed ovarian cancer; 6 months, single agent): 31%
C=CCc1ccc(O)c(OC)c1  IC50 (ABTS radical scavenging): 7.84 µg/mL
CNC(C)C1CCC(N)C(OC2C(N)CC(N)C(OC3OCC(C)(O)C(NC)C3O)C2O)O1 (stereo not shown)  MIC (Escherichia coli; clinical isolate RKI-No_590/16): > 8 µg/mL
COC(=O)C1=C(C)NC(C)=C(C(=O)OC)C1c1c(C)nc2sc(Cl)cn12  EC50 (negative inotropic effect; guinea pig, isolated left atrium): 130 nM
OCc1cc(C(O)CNCCCCCCOCCCCc2ccccc2)ccc1O (stereo not shown)  trough FEV1 change from baseline (COPD patients; inhaled, 25 µg single, 12 h post-dose; baseline: placebo): 74 mL
Cc1ccc(Nc2nccc(N(C)c3ccc4c(C)n(C)nc4c3)n2)cc1S(N)(=O)=O  median progression-free survival (paediatric sarcoma patients; dose not given): 3 months
CN(C)C(=O)c1cc2cnc(Nc3ccc(N4CCNCC4)cn3)nc2n1C1CCCC1  progression-free survival (human recurrent glioblastoma; 600 mg/day): 9.7 weeks
Nc1cccc2c1C(=O)N(C1CCC(=O)NC1=O)C2=O (stereo not shown)  minimal response or better rate (relapsed refractory multiple myeloma patients; dose not given, independent adjudication): 25%
COC(=O)C1=C(C)NC(C)=C(C(=O)OC)C1c1c(-c2cc(OC)ccc2OC)nc2sc(C)cn12  EC50 (decrease in atrial rate; guinea pig right atrium): 6610 nM
COC(=O)[C@H](Cc1ccccc1)NC(=O)[C@@H](N)CC(=O)O  detection threshold (sensory evaluation; human sensory panel, water): 22.4 µM
COC(=O)C1=C(C)NC(C)=C(C(=O)OC)C1c1c(-c2ccccc2OC)nc2sccn12  EC50 (negative inotropic effect; guinea pig, isolated left atrium): 1970 nM
C=CCN(/C=C1/C(=O)O[C@H](COC)[C@@]2(C)C1=C(O)C(=O)C1=C2[C@H](OC(C)=O)C[C@]2(C)C(=O)CC[C@@H]12)CC=C  stable disease (advanced solid tumour patients; dose not given, days 1–5, 8–12, 28-day cycle; baseline: patients): 22%
CC(=O)O[C@H]1C(=O)[C@@]2(C)[C@H]([C@H](OC(=O)c3ccccc3)[C@]3(O)C[C@H](OC(=O)[C@H](O)[C@@H](NC(=O)c4ccccc4)c4ccccc4)C(C)=C1C3(C)C)[C@]1(OC(C)=O)CO[C@@H]1C[C@@H]2O  median time to progression (advanced urothelial cancer patients; 80 mg/m2 weekly, monotherapy): 2.2 months
COc1cc2c(Nc3ccc(Cl)c(Cl)c3F)ncnc2cc1OC[C@@H]1C[C@@H]2CN(C)C[C@@H]2C1  response rate (treatment-naive patients, advanced EGFR-mutant NSCLC; dose not given, phase II trial): 57%
COc1cc(N2CCC3(CCN(C)CC3)CC2)ccc1Nc1ncc(Cl)c(Nc2ccccc2P(C)(C)=O)n1  intracranial objective response rate (ALK TKI-naive ALK-positive NSCLC patients; dose not given, measurable CNS metastases at baseline): 90.9%
Cc1cc(C)c(CNC(=O)c2cc(Cl)c3c(c2C)O[C@@](C)([C@H]2CC[C@H](N(C)C)CC2)O3)c(=O)[nH]1  median time to response (relapsed/refractory PTCL patients; dose not given): 8.14 weeks
O=c1[nH]cc(F)c(=O)[nH]1  overall tumour response rate (metastatic pancreatic cancer patients; dose not given): 0%
O=C(/C=C/c1ccc(O)c2c1[C@H](C(=O)O[C@H](Cc1ccc(O)c(O)c1)C(=O)O)[C@@H](c1ccc(O)c(O)c1)O2)O[C@H](Cc1ccc(O)c(O)c1)C(=O)O  effective dose (anticoagulant effect; rabbit LPS-induced DIC; intravenous): 1 mg/kg
CC(C)(C)NCC(O)c1ccc(O)c(CO)c1 (stereo not shown)  trough FEV1 change (COPD patients; 2 mg single, 6 h, day 1; baseline: baseline, placebo-corrected): 94 mL

For quick reference, copied from above:
C[C@H]1COCCN1c1nc(-c2cnc(N)cc2C(F)F)nc(N2CCOCC2)n1  GI50 (A498): 128 nM
COC(=O)C1=C(C)NC(C)=C(C(=O)OC)C1c1c(-c2cc(OC)ccc2OC)nc2sc(Cl)cn12  EC50 (negative inotropic effect; guinea pig, isolated left atrium): 900 nM
Cc1cc(C)c(CNC(=O)c2cc(Cl)c3c(c2C)O[C@@](C)([C@H]2CC[C@H](N(C)C)CC2)O3)c(=O)[nH]1  median time to response (relapsed/refractory PTCL patients; dose not given): 8.14 weeks
O=C(O)c1ccc(O)c(O)c1  effective dose (anti-inflammatory effect; lung injury, acute, LPS-induced mouse; intraperitoneal): 5 mg/kg
COc1cc2c(Nc3ccc(Cl)c(Cl)c3F)ncnc2cc1OC[C@@H]1C[C@@H]2CN(C)C[C@@H]2C1  response rate (treatment-naive patients, advanced EGFR-mutant NSCLC; dose not given, phase II trial): 57%
Nc1cccc2c1CN(C1CCC(=O)NC1=O)C2=O (stereo not shown)  IC50 (TNF release; human whole blood; with: LPS): 100 nM
